Measurements gathered from unrelated publications.
Lines come from different studies, so protocols differ. Values joined by “and” are separate records of one study, mostly repeats; a detail may differ. ± gives the spread as reported.
SLC10A1: Hepatic sodium/bile acid cotransporter (SLC10A1, Homo sapiens, UniProt Q14973)
PSMB6: Proteasome subunit beta type-6 (PSMB6, Homo sapiens, UniProt P28072)
HDAC3: Histone deacetylase 3 (HDAC3, Homo sapiens, UniProt O15379)
HDAC8: Histone deacetylase 8 (HDAC8, Homo sapiens, UniProt Q9BY41)
PIK3CB: Phosphatidylinositol 4,5-bisphosphate 3-kinase catalytic subunit beta isoform (PIK3CB, Homo sapiens, UniProt P42338)
Genome polyprotein protease: Genome polyprotein, protease (Hepatitis C virus genotype 1b, UniProt O92972)
CatSper channel complex: CatSper channel complex (Homo sapiens, UniProt Q7RTX7+Q86XQ3+Q8NEC5+Q96P56)

SMILES | target | test | test system | setting | IC50
Cc1ccc2c(c1)nc(NC(=O)c1cccc(C(F)(F)F)c1)n2[C@H]1CC[C@H](N)CC1 | CDC2-like kinase 1 (Trypanosoma brucei brucei, UniProt Q382U0) | enzyme activity, inhibitor, ADP-Glo |  | 10 min preincubation, added: ATP 10 µM | > 20 µM
O=C1Nc2c(Br)cccc2/C1=C1/Nc2ccccc2C1=NO | Serine/threonine-protein kinase N2 (PKN2, Homo sapiens, UniProt Q16513) |  |  |  | > 10 µM
NCC1CCN(c2nc(-c3ccncc3)nc3c(C#CCO)cccc23)CC1 | RAC-alpha serine/threonine-protein kinase (AKT1, Homo sapiens, UniProt P31749) | enzyme activity, inhibitor, radiometric |  |  | 0.019 µM
C[C@H](CCC(=O)NCC(=O)O)[C@H]1CC[C@H]2[C@@H]3[C@H](O)C[C@@H]4C[C@H](O)CC[C@]4(C)[C@H]3CC[C@]12C | SLC10A1 |  |  |  | 25.8 µM
C=CC(=O)Nc1ccc(F)c(-c2ncnc3[nH]cc(C(=O)OCC)c23)c1 | Non-receptor tyrosine-protein kinase TYK2 (TYK2, Homo sapiens, UniProt P29597) | kinase activity |  | added: ATP 100 µM | > 10 µM
O=C(Cc1ccc(OCc2ccccc2)cc1)NC1(C(=O)O)CCN(C(=O)c2ccc(-c3cccc(Cl)c3)cc2)CC1 | Cannabinoid receptor 1 (CNR1, Homo sapiens, UniProt P21554) | antagonist, GloSensor cAMP |  |  | > 10 µM
CC(C)C[C@H](NC(=O)[C@H](Cc1ccc(CN)cc1)NC(=O)[C@H](Cc1ccccc1)N=[N+]=[N-])C(=O)N[C@@H](CC1CCC(C)CC1)C(=O)[C@@]1(C)CO1 (stereo partly drawn) | PSMB6 | competitive ABPP | Raji cell lysate |  | > 10 µM
Cc1c(COc2cc(OCc3cccc(C#N)c3)c(CNC(CO)(CO)CO)cc2Cl)cccc1-c1cccc(OCCCCCC(=O)NO)c1 | HDAC3 | enzyme activity, inhibitor |  |  | 0.0749 µM
CN1CC[C@@H](COc2cnc(C#N)cc2-c2ccn3nc(NC(=O)C4CC4)cc3c2)C1 | Serine/threonine-protein kinase SIK2 (SIK2, Homo sapiens, UniProt Q9H0K1) | enzyme activity, inhibitor |  |  | 0.048 µM
C[C@@H](Nc1nc2c(cnn2C(C)(C)C)c(=O)n1Cc1cccc(F)c1)c1ccc(Cl)cc1 | cGMP-specific 3',5'-cyclic phosphodiesterase (PDE5A, Homo sapiens, UniProt O76074) | enzyme activity, inhibitor |  |  | 0.248 µM
CC(C)(C)c1ccccc1OS(=O)(=O)Oc1cccc(C(=O)NO)c1 | HDAC8 | enzyme activity, inhibitor, fluorescence |  |  | 0.145 µM
CN1CCCC1C(=O)NC(Cc1ccc(-n2cccn2)cc1)B(O)O (stereo not drawn) | Proteasome subunit beta type-10 / Proteasome subunit beta type-3 (Homo sapiens, UniProt P40306+P49720) | β2i activity, inhibitor |  | immunoproteasome, added: Ac-KQL-AMC | > 10 µM
Cc1cc(NC2CCN(C)CC2)ccc1-c1cc2c(N3CCC[C@H](C(=O)NCc4ccc(OC(F)(F)F)cc4)C3)ncnc2[nH]1 | Protein kinase C alpha type (PRKCA, Homo sapiens, UniProt P17252) | enzyme activity, inhibitor, mobility shift |  |  | 1.93 µM
COc1ccc(-c2coc3cc(O)cc(O)c3c2=O)cc1 | 3 beta-hydroxysteroid dehydrogenase/Delta 5-->4-isomerase type 1 (HSD3B1, Homo sapiens, UniProt P14060) | enzyme activity, inhibitor |  |  | 18.5 µM
CCN(CC)CC(=O)Nc1cccc(-n2cc(-c3ccc4ccc(-c5cn(-c6cccc(NC(=O)CN(CC)CC)c6)nn5)cc4c3)nn2)c1 | Cyclin-dependent kinase 1, with cyclin B (CDK1, Homo sapiens, UniProt P06493) |  |  |  | > 10 µM
CC(C)(C)NC(=O)CC(NC(=O)CCc1ccccc1)C(=O)NCCNC(=O)c1cccc(-c2ccccc2)c1 (stereo not drawn) | 20S proteasome (Plasmodium falciparum, UniProt A0A5K1K7U1+Q8IJT1) | inhibitor |  | added: LLVY-AMC 30 µM, WLW-VS 0.5 µM | 0.0036 µM
Cc1nc(N(C)c2ccc3c(c2)/C(=C/c2ccccc2C)C(=O)N3C)c2ccccc2n1 | PIK3CB | enzyme activity, inhibitor, ADP detection |  |  | 0.141 µM
CC(C)(C)c1cccc(OS(=O)(=O)Oc2cc(F)cc(C(=O)NO)c2)c1 | HDAC8 | enzyme activity, inhibitor, fluorescence |  |  | 6.96 µM
C=CC(=O)N1C[C@H](C)N(c2nc(OC[C@@]34CCCN3C[C@H](F)C4)nc3c(F)c(-c4ccc(F)c5sc(N)c(C#N)c45)c(C(F)(F)F)cc23)C[C@H]1C | GTPase KRas, GppNHp-bound; with RAF1-RBD (KRAS, Homo sapiens, UniProt P01116) | binding, HTRF |  |  | 3.3 µM
CC(=O)N1c2ccc(-c3ccc(CNC(=O)c4cn5cc(-c6cnc(N)nc6)nc(N6CCOCC6)c5n4)cc3)cc2CC[C@@H]1C | PIK3CB | kinase activity, inhibitor, Kinase-Glo |  |  | 3.78 ± 0.57 µM
Cn1cncc1[C@@]1(N)c2ccc(C#N)c(c2)COc2cccc(c2)-c2cc(C#N)nc3ccc1cc23 | Protein farnesyltransferase (Homo sapiens, UniProt P49354+P49356) | enzyme activity, inhibitor |  |  | 0.00241 µM and 0.0024 µM

SMILES | target | test | test system | setting | IC50
Fc1ccc2cccc(-c3ncc4c(N5C[C@H]6CC[C@@H](C5)N6)nc(OCC56CCCN5CCC6)nc4c3F)c2c1F | GTPase KRas, with RAF (KRAS, Homo sapiens, UniProt P01116) | RAF-KRAS interaction, inhibitor, NanoBRET | HEK293T | 24 h | 5.2 ± 0.3 µM
COc1cc(-n2cc3cc(F)cc(C(N)=O)c3n2)cc(Cl)c1C1CC(O)(CCO)CC2CCCC21 (stereo not drawn) | Poly [ADP-ribose] polymerase 1 (PARP1, Homo sapiens, UniProt P09874) | enzyme activity, inhibitor, radiometric |  |  | 0.00013 µM
Cc1ccc(CN2C3(NC(c4ccc(C)cc4)C24C(=O)Nc2ccccc24)C(=O)Nc2ccccc23)cc1 (stereo not drawn) | PIK3CB | enzyme activity, inhibitor, ADP detection |  |  | 0.655 µM
c1ccc(CN2COc3c(c4c(c5c3CN(Cc3ccccc3)CO5)CN(Cc3ccccc3)CO4)C2)cc1 | Bcl-2-related protein A1 (Mus musculus, UniProt Q07440, C113S/P104K) | ligand displacement, FP |  |  | 390 µM
O=C1Nc2ccccc2/C1=N/c1ccc(Cl)cc1Br | PIK3CB | enzyme activity, inhibitor, ADP detection |  |  | 0.0717 µM
CCn1c(=S)[nH]c2cc3ccccc3cc2c1=O | Genome polyprotein protease | enzyme activity, inhibitor, FRET |  |  | 6.46 µM
CC(C)C[C@H](NC(=O)[C@H](Cc1ccc(CN)cc1)NC(=O)[C@H](Cc1ccccc1)N=[N+]=[N-])C(=O)N[C@@H](CC1CCC2CCCCC2C1)C(=O)[C@@]1(C)CO1 (stereo partly drawn) | PSMB6 | competitive ABPP | Raji cell lysate |  | > 10 µM
c1ccc2c(CN3CCC(N4CCCCCC4)CC3)c[nH]c2c1 | CatSper channel complex | calcium influx, inhibitor, FLIPR | human sperm | added: high pH, high potassium | 12 µM
C[C@H](CCC(=O)O)[C@H]1CC[C@H]2[C@@H]3[C@@H](O)C[C@@H]4C[C@H](O)CC[C@]4(C)[C@H]3CC[C@]12C | SLC10A1 | preS1 binding, inhibitor, fluorescence | HepG2-hNTCP-C4 | added: myristoylated preS1(2-48)-TAMRA | > 80 µM
Cc1cc(C)c(S(=O)(=O)N(CC(=O)O)c2ccc(Nc3ccnc(N4CCCC4)n3)cc2)c(C)c1 | Cyclin-dependent kinase 1 (CDK1, Homo sapiens, UniProt P06493) | enzyme activity, inhibitor |  |  | > 100 µM
Cc1nn(-c2cccc(N)c2)c(=O)c2cnc(Nc3ccc(N4CCNCC4)cc3)nc12 | Mitogen-activated protein kinase 11 (MAPK11, Homo sapiens, UniProt Q15759) | enzyme activity, inhibitor |  |  | > 10 µM
COc1ccccc1/C=C1\C(=O)N(C)c2ccc(N(C)c3nc(C)nc4ccccc34)cc21 | PIK3CB | enzyme activity, inhibitor, ADP detection |  |  | 0.101 µM
CNCc1ccc2c(c1)C[C@H](CNC(=N)N)[C@H]2NC(=O)C(=O)Nc1ccc(Cl)c(F)c1 | env (Human immunodeficiency virus 1, UniProt Q75760) | viral infection | Cf2Th-CD4/CCR5, HIV-1 | 48 h | 25.5 µM
O=C(Nc1cc(-c2ccc(Cl)cc2)[nH]n1)c1cccc(O)c1 | Cyclin-dependent kinase 2, with cyclin A (CDK2, Homo sapiens, UniProt P24941) | radiometric |  | added: 1 µM ATP | 5.4 µM
Cc1c(COc2cc(OCc3cccc(C#N)c3)c(CN3CCCC[C@@H]3C(=O)O)cc2Cl)cccc1-c1cccc(OCCCCCC(=O)NO)c1 | HDAC3 | enzyme activity, inhibitor |  |  | 0.0461 µM
CCn1nc(Cl)c2c1-c1cnc(N)c(c1)O[C@H](C)c1cc(F)ccc1-c1nn(C)cc1C2 | Insulin-like growth factor 1 receptor (IGF1R, Homo sapiens, UniProt P08069) | enzyme activity, inhibitor, radiometric |  |  | 0.455 µM
CCOC(=O)C[C@@H](C#N)NC(=O)[C@@H]1CCCN1C(=O)[C@@H](NC(=O)c1ccc(N)c(Cl)c1)C(C)(C)C | Caspase-8 (CASP8, Homo sapiens, UniProt Q14790) | enzyme activity, inhibitor |  |  | 9.67 µM
Cc1ccc2nc(NN)n(Cc3ccccc3)c(=O)c2c1 | Genome polyprotein protease | enzyme activity, inhibitor, FRET |  |  | 29.5 µM
O=C1/C(=N\c2ccc(Cl)cc2Br)c2ccccc2N1C(=O)c1ccccc1Br | PIK3CB | enzyme activity, inhibitor, ADP detection |  |  | 0.0746 µM
CN(C)c1nc(N)c(C(=O)NC(=N)N)nc1Cl | CatSper channel complex | calcium influx, inhibitor, FLIPR | human sperm | added: high pH, high potassium | 59 µM
Fc1ccc(Nc2nc(NC3CCCCC3)c3cc(Br)ccc3n2)cc1F | Beta-2 adrenergic receptor (ADRB2, Homo sapiens, UniProt P07550, T164V) | β-arrestin2 recruitment, antagonist, BRET | HEK293 | mutant T164V, added: isoprenaline 1 µM | 0.2 µM

A few entries again:
SMILES | target | test | test system | setting | IC50
COc1ccccc1/C=C1\C(=O)N(C)c2ccc(N(C)c3nc(C)nc4ccccc34)cc21 | PIK3CB | enzyme activity, inhibitor, ADP detection |  |  | 0.101 µM
CNCc1ccc2c(c1)C[C@H](CNC(=N)N)[C@H]2NC(=O)C(=O)Nc1ccc(Cl)c(F)c1 | env (Human immunodeficiency virus 1, UniProt Q75760) | viral infection | Cf2Th-CD4/CCR5, HIV-1 | 48 h | 25.5 µM
O=C(Nc1cc(-c2ccc(Cl)cc2)[nH]n1)c1cccc(O)c1 | Cyclin-dependent kinase 2, with cyclin A (CDK2, Homo sapiens, UniProt P24941) | radiometric |  | added: 1 µM ATP | 5.4 µM
Cc1c(COc2cc(OCc3cccc(C#N)c3)c(CN3CCCC[C@@H]3C(=O)O)cc2Cl)cccc1-c1cccc(OCCCCCC(=O)NO)c1 | HDAC3 | enzyme activity, inhibitor |  |  | 0.0461 µM
CCn1nc(Cl)c2c1-c1cnc(N)c(c1)O[C@H](C)c1cc(F)ccc1-c1nn(C)cc1C2 | Insulin-like growth factor 1 receptor (IGF1R, Homo sapiens, UniProt P08069) | enzyme activity, inhibitor, radiometric |  |  | 0.455 µM
CCOC(=O)C[C@@H](C#N)NC(=O)[C@@H]1CCCN1C(=O)[C@@H](NC(=O)c1ccc(N)c(Cl)c1)C(C)(C)C | Caspase-8 (CASP8, Homo sapiens, UniProt Q14790) | enzyme activity, inhibitor |  |  | 9.67 µM
